Results gathered from unrelated publications.
Each line is one published result; not all experiments were run side by side. ± gives the spread as reported.
B1: human myosin-Ic; sequence looked up; chain MALQVELVPTGEIIRVVHPHRPCKLALGSDGVRVTMESALTARDRVGVQDFVLLENFTSEAAFIENLRRRFRENLIYTYIGPVLVSVNPYRDLQIYSRQHMERYRGVSFYEVPPHLFAVADTVYRALRTERRDQAVMISGESGAGKTEATKRLLQFYAETCPAPERGGAVRDRLLQSNPVLEAFGNAKTLRNDNSSRFGKYMDVQFDFKGAPVGGHILSYLLEKSRVVHQNHGERNFHIFYQLLEGGEEETLRRLGLERNPQSYLYLVKGQCAKVSSINDKSDWKVVRKALTVIDFTEDEVEDLLSIVASVLHLGNIHFAANEESNAQVTTENQLKYLTRLLSVEGSTLREALTHRKIIAKGEELLSPLNLEQAAYARDALAKAVYSRTFTWLVGKINRSLASKDVESPSWRSTTVLGLLDIYGFEVFQHNSFEQFCINYCNEKLQQLFIELTLKSEQEEYEAEGIAWEPVQYFNNKIICDLVEEKFKGIISILDEECLRPGEATDLTFLEKLEDTVKHHPHFLTHKLADQRTRKSLGRGEFRLLHYAGEVTYSVTGFLDKNNDLLFRNLKETMCSSKNPIMSQCFDRSELSDKKRPETVATQFKMSLLQLVEILQSKEPAYVRCIKPNDAKQPGRFDEVLIRHQVKYLGLLENLRVRRAGFAYRRKYEAFLQRYKSLCPETWPTWAGRPQDGVAVLVRHLGYKPEEYKMGRTKIFIRFPKTLFATEDALEVRRQSLATKIQAAWRGFHWRQKFLRVKRSAICIQSWWRGTLGRRKAAKRKWAAQTIRRLIRGFVLRHAPRCPENAFFLDHVRTSFLLNLRRQLPQNVLDTSWPTPPPALREASELLRELCIKNMVWKYCRSISPEWKQQLQQKAVASEIFKGKKDNYPQSVPRLFISTRLGTDEISPRVLQALGSEPIQYAVPVVKYDRKGYKPRSRQLLLTPNAVVIVEDAKVKQRIDYANLTGISVSSLSDSLFVLHVQRADNKQKGDVVLQSDHVIETLTKTALSANRVNSININQGSITFAGGPGRDGTIDFTPGSELLITKAKNGHLAVVAPRLNSR
B2: human HSPA4; sequence looked up; chain MSVVGIDLGFQSCYVAVARAGGIETIANEYSDRCTPACISFGPKNRSIGAAAKSQVISNAKNTVQGFKRFHGRAFSDPFVEAEKSNLAYDIVQLPTGLTGIKVTYMEEERNFTTEQVTAMLLSKLKETAESVLKKPVVDCVVSVPCFYTDAERRSVMDATQIAGLNCLRLMNETTAVALAYGIYKQDLPALEEKPRNVVFVDMGHSAYQVSVCAFNRGKLKVLATAFDTTLGGRKFDEVLVNHFCEEFGKKYKLDIKSKIRALLRLSQECEKLKKLMSANASDLPLSIECFMNDVDVSGTMNRGKFLEMCNDLLARVEPPLRSVLEQTKLKKEDIYAVEIVGGATRIPAVKEKISKFFGKELSTTLNADEAVTRGCALQCAILSPAFKVREFSITDVVPYPISLRWNSPAEEGSSDCEVFSKNHAAPFSKVLTFYRKEPFTLEAYYSSPQDLPYPDPAIAQFSVQKVTPQSDGSSSKVKVKVRVNVHGIFSVSSASLVEVHKSEENEEPMETDQNAKEEEKMQVDQEEPHVEEQQQQTPAENKAESEEMETSQAGSKDKKMDQPPQAKKAKVKTSTVDLPIENQLLWQIDREMLNLYIENEGKMIMQDKLEKERNDAKNAVEEYVYEMRDKLSGEYEKFVSEDDRNSFTLKLEDTENWLYEDGEDQPKQVYVDKLAELKNLGQPIKIRFQESEERPKLFEELGKQIQQYMKIISSFKNKEDQYDHLDAADMTKVEKSTNEAMEWMNNKLNLQNKQSLTMDPVVKSKEIEAKIKELTSTCSPIISKPKPKVEPPKEEQKNAEQNGPVDGQGDNPGPQAAEQGTDTAVPSDSDKKLPEMDID
B3: human UPF1; sequence looked up; chain MSVEAYGPSSQTLTFLDTEEAELLGADTQGSEFEFTDFTLPSQTQTPPGGPGGPGGGGAGGPGGAGAGAAAGQLDAQVGPEGILQNGAVDDSVAKTSQLLAELNFEEDEEDTYYTKDLPIHACSYCGIHDPACVVYCNTSKKWFCNGRGNTSGSHIVNHLVRAKCKEVTLHKDGPLGETVLECYNCGCRNVFLLGFIPAKADSVVVLLCRQPCASQSSLKDINWDSSQWQPLIQDRCFLSWLVKIPSEQEQLRARQITAQQINKLEELWKENPSATLEDLEKPGVDEEPQHVLLRYEDAYQYQNIFGPLVKLEADYDKKLKESQTQDNITVRWDLGLNKKRIAYFTLPKTDSGNEDLVIIWLRDMRLMQGDEICLRYKGDLAPLWKGIGHVIKVPDNYGDEIAIELRSSVGAPVEVTHNFQVDFVWKSTSFDRMQSALKTFAVDETSVSGYIYHKLLGHEVEDVIIKCQLPKRFTAQGLPDLNHSQVYAVKTVLQRPLSLIQGPPGTGKTVTSATIVYHLARQGNGPVLVCAPSNIAVDQLTEKIHQTGLKVVRLCAKSREAIDSPVSFLALHNQIRNMDSMPELQKLQQLKDETGELSSADEKRYRALKRTAERELLMNADVICCTCVGAGDPRLAKMQFRSILIDESTQATEPECMVPVVLGAKQLILVGDHCQLGPVVMCKKAAKAGLSQSLFERLVVLGIRPIRLQVQYRMHPALSAFPSNIFYEGSLQNGVTAADRVKKGFDFQWPQPDKPMFFYVTQGQEEIASSGTSYLNRTEAANVEKITTKLLKAGAKPDQIGIITPYEGQRSYLVQYMQFSGSLHTKLYQEVEIASVDAFQGREKDFIILSCVRANEHQGIGFLNDPRRLNVALTRARYGVIIVGNPKALSKQPLWNHLLNYYKEQKVLVEGPLNNLRESLMQFSKPRKLVNTINPGARFMTTAMYDAREAIIPGSVYDRSSQGRPSSMYFQTHDQIGMISAGPSHVAAMNIPIPFNLVMPPMPPPGYFGQANGPAAGRGTPKGKTGRGGRQKNRFGLPGPSQTNLPNSQASQDVASQPFSQGALTQGYISMSQPSQMSQPGLSQPELSQDSYLGDEFKSQIDVALSQDSTYQGERAYQHGGVTGLSQY
B4: human hypoxia up-regulated protein 1; sequence looked up; chain LAVMSVDLGSESMKVAIVKPGVPMEIVLNKESRRKTPVIVTLKENERFFGDSAASMAIKNPKATLRYFQHLLGKQADNPHVALYQARFPEHELTFDPQRQTVHFQISSQLQFSPEEVLGMVLNYSRSLAEDFAEQPIKDAVITVPVFFNQAERRAVLQAARMAGLKVLQLINDNTATALSYGVFRRKDINTTAQNIMFYDMGSGSTVCTIVTYQMVKTKEAGMQPQLQIRGVGFDRTLGGLEMELRLRERLAGLFNEQRKGQRAKDVRENPRAMAKLLREANRLKTVLSANADHMAQIEGLMDDVDFKAKVTRVEFEELCADLFERVPGPVQQALQSAEMSLDEIEQVILVGGATRVPRVQEVLLKAVGKEELGKNINADEAAAMGAVYQAAALSKAFKVKPFVVRDAVVYPILVEFTREVEEEPGIHSLKHNKRVLFSRMGPYPQRKVITFNRYSHDFNFHINYGDLGFLGPEDLRVFGSQNLTTVKLKGVGDSFKKYPDYESKGIKAHFNLDESGVLSLDRVESVFETLVEDSAEEESTLTKLGNTISSLFGGGTTPDAKENGTDTVQEEEESPAEGSKDEPGEQVELKEEAEAPVEDGSQPPPPEPKGDATPEGEKATEKENGDKSEAQKPSEKAEAGPEGVAPAPEGEKKQKPARKRRMVEEIGVELVVLDLPDLPEDKLAQSVQKLQDLTLRDLEKQEREKAANSLEAFIFETQDKLYQPEYQEVSTEEQREEISGKLSAASTWLEDEGVGATTVMLKEKLAELRKLCQGLFFRVEERKKWPERLSALDNLLNHSSMFLKGARLIPEMDQIFTEVEMTTLEKVINETWAWKNATLAEQAKLPATEKPVLLSKDIEAKMMALDREVQYLLNKAKFTKPRPRPKDKNGTRAEPPLNASASDQGEKVIPPAGQTEDAEPISEPEKVETGSEPGDTEPLELGGPGAEPEQKEQSTGQKRPLKNDEL
B5: human DDX21; sequence looked up; chain MPGKLRSDAGLESDTAMKKGETLRKQTEEKEKKEKPKSDKTEEIAEEEETVFPKAKQVKKKAEPSEVDMNSPKSKKAKKKEEPSQNDISPKTKSLRKKKEPIEKKVVSSKTKKVTKNEEPSEEEIDAPKPKKMKKEKEMNGETREKSPKLKNGFPHPEPDCNPSEAASEESNSEIEQEIPVEQKEGAFSNFPISEETIKLLKGRGVTFLFPIQAKTFHHVYSGKDLIAQARTGTGKTFSFAIPLIEKLHGELQDRKRGRAPQVLVLAPTRELANQVSKDFSDITKKLSVACFYGGTPYGGQFERMRNGIDILVGTPGRIKDHIQNGKLDLTKLKHVVLDEVDQMLDMGFADQVEEILSVAYKKDSEDNPQTLLFSATCPHWVFNVAKKYMKSTYEQVDLIGKKTQKTAITVEHLAIKCHWTQRAAVIGDVIRVYSGHQGRTIIFCETKKEAQELSQNSAIKQDAQSLHGDIPQKQREITLKGFRNGSFGVLVATNVAARGLDIPEVDLVIQSSPPKDVESYIHRSGRTGRAGRTGVCICFYQHKEEYQLVQVEQKAGIKFKRIGVPSATEIIKASSKDAIRLLDSVPPTAISHFKQSAEKLIEEKGAVEALAAALAHISGATSVDQRSLINSNVGFVTMILQCSIEMPNISYAWKELKEQLGEEIDSKVKGMVFLKGKLGVCFDVPTASVTEIQEKWHDSRRWQLSVATEQPELEGPREGYGGFRGQREGSRGFRGQRDGNRRFRGQREGSRGPRGQRSGGGNKSNRSQNKGQKRSFSKAFGQ
B6: adiponectin; sequence looked up; chain ETTTQGPGVLLPLPKGACTGWMAGIPGHPGHNGAPGRDGRDGTPGEKGEKGDPGLIGPKGDIGETGVPGAEGPRGFPGIQGRKGEPGEGAYVYRSAFSVGLETYVTIPNMPIRFTKIFYNQQNHYDGSTGKFHCNIPGLYYFAYHITVYMKDVKVSLFKKDKAMLFTYDQYQENNVDQASGSVLLHLEVGDQVWLQVYGEGERNGLYADNDNDSTFTGFLLYHDTN

| Substance | cell line | assay | test system | conditions | how to read | measurement | result |
| --- | --- | --- | --- | --- | --- | --- | --- |
| epoetin alfa | UT7/EPO | microarray, refers to: PHLDA1 (probe 217996_at) |  | 5 U/mL, 90 min, together with: SCF 10 nM | relative to: vehicle | mRNA level | 7.7 fold |
| B1 (human myosin-Ic) | CYB5R4 knockout human cells | PP6 interaction, 3xFLAG-PP6C IP-MS |  | concentration not given | relative to: CYB5R4 KO over parental | log2 fold change | -0.55 |
| Peginesatide | UT7/EPO | tyrosine phosphorylation, LC-MS/MS phosphoproteomics, trypsin, refers to: SHIP1 tyrosine 915 |  | 10 nM, 15 min, together with: 10 U/mL EPO | relative to: vehicle | phosphorylation level | 46.1 fold |
| Ac-LRKLRKRLLRDWLKAFYDKVAEKLKEAF-NH2 (N-acetyl, C-amide) | THP-1 macrophages |  | peptide | 5 µg/mL, together with: [3H]-cholesterol loading | relative to: control | cholesterol efflux | 10% |
| EADPIIDSY | Jurkat NFAT-eGFP expressing engineered TCR | NFAT reporter gene | peptide | concentration not given, HLA-A*01:01 presentation |  | GFP-positive cells | 1.66% |
| IGF-1 | HUVEC | EdU incorporation |  | 10 nM, 48 h |  | proliferation | 18.9% |
| RIDPIPLGM | Jurkat expressing engineered TCR | NFAT-eGFP reporter, fluorescence microscopy | peptide | concentration not given, HLA-A*01:01 on EL4 cells |  | GFP-positive cells | 0.39% |
| B2 (human HSPA4) | CYB5R4 knockout human cells | PP4 interaction, 3xFLAG-PP4C IP-MS |  | concentration not given | relative to: CYB5R4 KO over parental | log2 fold change | -0.45 |
| MTVCNASQRQAHAQATAVSL | H2073 lung adenocarcinoma | phage binding output/input | peptide |  | relative to: control phage | selectivity ratio | 0.74 ± 0.33 |
| EVDPIGYDF | Jurkat expressing engineered TCR | NFAT-eGFP reporter, fluorescence microscopy | peptide | concentration not given, HLA-A*01:01 on EL4 cells |  | GFP-positive cells | 0.438% |
| B3 (human UPF1) | CYB5R4 knockout human cells | PP4 interaction, 3xFLAG-PP4C IP-MS |  | concentration not given | relative to: CYB5R4 KO over parental | log2 fold change | -1.45 |
| ATDIIPLAM | Jurkat expressing engineered TCR | NFAT-eGFP reporter, fluorescence microscopy | peptide | concentration not given, HLA-A*01:01 on EL4 cells |  | GFP-positive cells | 0.487% |
| B4 | CYB5R4 knockout human cells | PP4 interaction, 3xFLAG-PP4C IP-MS |  | concentration not given | relative to: CYB5R4 KO over parental | log2 fold change | -1.63 |
| QADPIQTAY | Jurkat expressing engineered TCR | NFAT-eGFP reporter, fluorescence microscopy | peptide | concentration not given, HLA-A*01:01 on EL4 cells |  | GFP-positive cells | 0.462% |
| B5 (human DDX21) | CYB5R4 knockout human cells | PP4 interaction, 3xFLAG-PP4C IP-MS |  | concentration not given | relative to: CYB5R4 KO over parental | log2 fold change | -0.72 |
| B6 (adiponectin) | HUVEC | real-time PCR, refers to: CXCL9 |  | 15 µg/mL, 24 h, unit not given, together with: TNF-α and IFN-γ | relative to: stimulated untreated | mRNA level | 0.95 ± 0.16 |
| ETDPIGFEF | Jurkat expressing engineered TCR | NFAT-eGFP reporter, fluorescence microscopy | peptide | concentration not given, HLA-A*01:01 on EL4 cells |  | GFP-positive cells | 7.65% |
| human RGPD1 | CYB5R4 knockout human cells | PP4 interaction, 3xFLAG-PP4C IP-MS |  | concentration not given | relative to: CYB5R4 KO over parental | log2 fold change | 0.39 |

Excerpt of the above:
| Substance | cell line | assay | test system | conditions | how to read | measurement | result |
| --- | --- | --- | --- | --- | --- | --- | --- |
| B6 (adiponectin) | HUVEC | real-time PCR, refers to: CXCL9 |  | 15 µg/mL, 24 h, unit not given, together with: TNF-α and IFN-γ | relative to: stimulated untreated | mRNA level | 0.95 ± 0.16 |
| ETDPIGFEF | Jurkat expressing engineered TCR | NFAT-eGFP reporter, fluorescence microscopy | peptide | concentration not given, HLA-A*01:01 on EL4 cells |  | GFP-positive cells | 7.65% |
